Assay results collected from several papers.
Lines come from different studies, so protocols differ.

Compound	test	test system	conditions	endpoint	result
COc1cc2c(Oc3ccc4[nH]c(C)cc4c3F)ccnc2cc1OCC1(N)CC1	–	paediatric refractory sarcoma patients	dose not given	patients with grade 3 ALP elevation	0%
[O-][S+]1CCc2nc(N3CCC(c4ncc(Cl)cn4)CC3)nc(NC3(CO)CCC3)c21 (centres unmarked)	adverse event	idiopathic pulmonary fibrosis patients	18 mg twice daily	patients with respiratory tract infection	0%
O=C1Nc2cc3[nH]nc(-c4ccncc4)c3cc2CN1Cc1ccccc1	CTCAE v4.03	advanced solid tumour patients	intravenous, 0.45 mg/kg, schedules 1/2	patients with constipation	0%
CC(=O)c1c(C)c2cnc(Nc3ccc(C4CCN(CCS(C)(=O)=O)CC4)cn3)nc2n(C2CCCC2)c1=O	–	HR+/HER2- advanced breast cancer patients	oral, dose not given, all grades,, total	patients with AST increased	30.9%
C=CC(=O)N1CC[C@H](n2nc(C#Cc3cc(OC)cc(OC)c3)c3c(N)ncnc32)C1	–	hyperphosphataemia patients	oral, once daily, grade ≥3, sevelamer users	patients with ADR	9.1%
C[C@@H]1OC(=O)NN=C1c1ccc(-c2ccc(F)cc2)c(C(F)(F)F)c1	–	patients, phase I trial	oral, 5 mg once daily, any grade TEAE	patients with abdominal distension	0%
Cn1cc(-c2nc(N[C@@H]3CCCC[C@@H]3N)c(F)c3c2C(=O)NC3)cn1	–	relapsed/refractory AML patients	oral, dose not given, phase Ib trial, all doses	patients with gingival bleeding	9%
C=CCNc1c(O)cc2c(O)c1C[C@@H](C)C[C@H](OC)[C@H](O)[C@@H](C)/C=C(\C)[C@H](OC(N)=O)[C@@H](OC)/C=C\C=C(/C)C(=O)N2	–	unresectable or metastatic STS, GIST, other	intravenous, 500 mg/m^2	patients with constipation TEAE	43%
Cc1nc(-c2cnc(NC(C)C)n(C)c2=O)ccc1Oc1ccnc(-c2cnn(C)c2)c1	–	patients with TGCT	oral, dose not given, NCI-CTCAE v4.03	patients with TEAE leading to discontinuation	6%
CC(C)C[C@H](NC(=O)[C@@H](Cc1c[nH]c2ccccc12)NC(=O)[C@H](Cc1ccc(O)cc1)NC(=O)[C@H](CO)NC(=O)[C@H](Cc1c[nH]c2ccccc12)NC(=O)[C@H](Cc1c[nH]cn1)NC(=O)[C@@H]1CCC(=O)N1)C(=O)N[C@@H](CCCNC(=N)N)C(=O)N1CCC[C@H]1C(=O)NCC(N)=O	–	Chinese CPP children, girls	intramuscular, 22.5 mg, 12 months, day 1, month 6	patients who died	0%
CN1CC[C@@H](c2c(O)cc(O)c3c(=O)cc(-c4ccc(C(F)(F)F)cc4Cl)oc23)[C@@H]1CO	measured: respiratory failure	AML	oral, 100 mg, grade 3 to 4, intermittent dosing	patients with adverse event	0%
N[C@@H]1c2ccccc2OC12CCN(c1cnc3c(N4CCCc5ncccc54)n[nH]c3n1)CC2	–	advanced solid tumour patients	oral, 75 mg once daily	patients with any TEAE	100%
COc1nnc2ccc(N3CCC(c4ccc(OCCN5CCN(C)C(=O)[C@H]5C)cc4)CC3)nn12	measured: nausea	patients with solid tumours or lymphoma	oral, dose not given, all grades, treatment-emergent	patients with adverse event	26.5%
COc1ccc(-c2c(-c3ccc(C#N)c(F)c3)nc(N3CCC(N)CC3)n(C)c2=O)cc1F	measured: decreased appetite	neuroendocrine neoplasm patients	oral, 60 mg, dose expansion	patients with TRAE any grade	6%

Some of these lines once more:
Compound	test	test system	conditions	endpoint	result
C=CCNc1c(O)cc2c(O)c1C[C@@H](C)C[C@H](OC)[C@H](O)[C@@H](C)/C=C(\C)[C@H](OC(N)=O)[C@@H](OC)/C=C\C=C(/C)C(=O)N2	–	unresectable or metastatic STS, GIST, other	intravenous, 500 mg/m^2	patients with constipation TEAE	43%
